Measured values collected from several papers.
Parts stem from different laboratories: compare values within a part only.

Study 1
Target: TAR DNA-binding protein 43, full length, His tag (TARDBP, Homo sapiens, UniProt Q13148, residues 1-414)
Technique: RNA Bind-n-Seq
Molecule type: RNA
Matrix: in vitro
Concentration: 20 nM
Setting: 6-mer, flanks averaged, single round
Together with: 150 mM KCl
Relative to: input library
Reading: higher = stronger binding
| Sequence | 6-mer enrichment (R) |
| --- | --- |
| UCACAA | 0.603 |
| UAUCCG | 0.597 |
| CUAUGG | 0.903 |

Study 2
Target: Histone acetyltransferase KAT6A, winged helix 1, GST fusion (KAT6A, Homo sapiens, UniProt Q92794, residues 1-85)
Technique: protein binding microarray
Molecule type: double-stranded DNA, one strand shown
Matrix: in vitro
Concentration: not given
Setting: 8-mer, flanks averaged, mean of 2 arrays, mostly near background
Relative to: not given
Reading: higher = stronger binding
Residues (chain): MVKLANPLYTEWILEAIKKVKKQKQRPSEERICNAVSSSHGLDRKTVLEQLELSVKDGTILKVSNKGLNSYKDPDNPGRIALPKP
| Sequence | E-score |
| --- | --- |
| AGACTGTC | -0.0471 |
| AGTAGCGG | 0.238 |
| CGCTCAAG | 0.203 |

Study 3
Target: Sal-like protein 4, full length isoform B (SALL4, Homo sapiens, UniProt Q9UJQ4-2, residues 1-616)
Technique: universal PBM
Molecule type: double-stranded DNA, one strand shown
Matrix: in vitro
Concentration: not given
Setting: 8-mer, flanks averaged, mean of replicates
Reading: higher = stronger binding
| Sequence | E-score |
| --- | --- |
| ATCAGAGA | 0.116 |
| GGGTCTCA | -0.169 |
| ACGACACC | -0.149 |

Further values, each from its own experiment
| Molecule | target | test | test system | setting | how to read | quantity | result |
| --- | --- | --- | --- | --- | --- | --- | --- |
| PhoQ, residues 284 288 289 292 302 303 AAQSYM | PhoP, residues 12 14 15 18 19 VQGLL (Escherichia coli, UniProt P23836) | Sort-seq, item: YFP reporter | E. coli | PhoQ-PhoP variant library, together with: 10 µM Mg2+ | relative to: high Mg2+ state, higher = stronger signaling | fold induction | 16.7 |

A few entries again (study 1):
| Sequence | 6-mer enrichment (R) |
| --- | --- |
| CUAUGG | 0.903 |
